Measured values gathered from unrelated publications.
Compare with care: the assays were run in different laboratories. ± gives the spread as reported.
CDK2: Cyclin-dependent kinase 2 (CDK2, Homo sapiens, UniProt P24941)
UniProt P35462, sequence (whole entry, looked up): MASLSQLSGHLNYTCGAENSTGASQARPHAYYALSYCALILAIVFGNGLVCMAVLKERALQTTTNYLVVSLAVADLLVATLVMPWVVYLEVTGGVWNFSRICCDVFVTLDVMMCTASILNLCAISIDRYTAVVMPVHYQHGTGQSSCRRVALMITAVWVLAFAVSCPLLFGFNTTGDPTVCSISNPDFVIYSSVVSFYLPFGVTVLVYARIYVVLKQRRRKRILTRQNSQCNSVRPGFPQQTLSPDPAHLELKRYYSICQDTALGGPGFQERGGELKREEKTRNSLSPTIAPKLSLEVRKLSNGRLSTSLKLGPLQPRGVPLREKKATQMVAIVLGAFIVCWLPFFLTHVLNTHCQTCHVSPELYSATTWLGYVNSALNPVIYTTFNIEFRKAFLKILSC

Compound = C=CC(=O)NC1CCN(c2ncc3ncnc(Nc4ccc(Oc5ccc6c(c5)ncn6C)c(C)c4)c3n2)CC1; test system = male beagle dog, plasma; setting = oral, 3 mg/kg, pentagastrin pretreatment; measurement = AUC(0-inf); result = 15.5 µM·h
Compound = COc1cc([N+](=O)[O-])ccc1NC(=O)CN1CCOCC1; target or system = CDK2; test = binding; measurement = Kd; result = > 100 µM
Compound = Cc1nc(-c2cnc(NC(C)C)n(C)c2=O)ccc1Oc1ccnc(-c2cnn(C)c2)c1; test system = Beagle dog, male, plasma; setting = oral, 30 mg/kg, crossover study, mean; measurement = AUC(0-inf); result = 67300 ng·h/mL
Compound = COc1nc(-c2cc(C)c(N[C@@H](C)c3cc(F)cc(F)c3)nn2)ccc1-n1cnc(C)c1; test system = cynomolgus monkey, male, plasma; setting = oral, 2 mg/kg; measurement = AUC(0-inf); result = 1680 ng·h/mL
Compound = COc1ccc(C[C@@H](C)[C@@H](C)Cc2ccc(OC)c(OC)c2)cc1OC; test system = beagle dog, male, plasma; setting = oral, 100 mg/kg/day, day 1; measurement = AUC(0-inf); result = 17000 ng·h/mL
Compound = C[C@@H]1CN(CC(=O)N2CC(C)(C)c3nc(CO)c(Cc4ccc(F)cc4)cc32)[C@@H](CN2CCOC[C@H]2C)CN1; test system = cynomolgus monkey, male; setting = oral, 5 mg/kg; measurement = AUC(0-inf); result = 592 ± 174 ng·h/mL
Compound = COc1ccc(NC(=O)CSc2nnnn2C)cc1; target or system = CDK2; test = binding; measurement = Kd; result = > 100 µM
Compound = COc1cc(C(=O)NC2CCN(C)CC2)c(F)cc1Nc1ncc(C(F)(F)F)c(Oc2cccc3c2C(=O)N(C)C3)n1; test system = cancer patients, plasma; setting = oral, 25 mg single dose, cycle 1 day 1, geometric mean; measurement = AUC(0-inf); result = 3.92 µM·h
Compound = Cc1ccc(NS(=O)(=O)c2c(C(=O)N3CCC(F)(F)C3)c(C)nn2C)cc1Cl; target or system = DRD3 (Homo sapiens, UniProt P35462); test = β-arrestin recruitment, antagonist, PathHunter; setting = together with: dopamine EC80; measurement = IC50; result = > 100 µM
Compound = CNC(=O)c1ccc(-c2cnc3ncc(Cc4ccc5ncccc5c4)n3n2)cc1F; test system = human mild hepatic impairment NCI; setting = oral, 200 mg single dose, geometric mean; measurement = AUC(0-inf); result = 6640 ng·h/mL
Compound = Cn1cc(-c2ccc(-c3cncc(Cl)c3N3CCC4(CCNC4=O)CC3)cc2)cn1; target or system = COLO 205; test = microarray, measured: PLA2G2A; setting = concentration not given, 6 h, gene set PLA2(hGIIA); scale = reference: untreated cells; measurement = fold change in expression; result = -6.8
Compound = CCCCCCCCCCCCCCCC(=O)N[C@@H](CCC(=O)NCCCC[C@@H]1NC(=O)[C@H]([C@@H](C)CC)NC(=O)[C@@H](NC(=O)[C@@H]2CCCN2C(=O)[C@H](Cc2ccccc2)NC(=O)[C@H](Cc2c[nH]cn2)NC(=O)[C@@H](NC(=O)[C@H](CC(=O)O)NC(=O)CC(C)C)[C@@H](C)O)CSSC[C@@H](C(=O)N[C@@H](CCCCN)C(N)=O)NC(=O)CNC(=O)[C@H](CCCCN)NC(=O)[C@H](CO)NC(=O)[C@H](CCCNC(=N)N)NC(=O)[C@@H]2CCCN2C(=O)[C@H](CCC(=O)O)NC(=O)[C@H](Cc2ccccc2)NC1=O)C(=O)O; test system = healthy volunteers, plasma; setting = subcutaneous, 45 mg single, lyophilised formulation; measurement = AUC(0-inf); result = 40600 ± 8900 ng·h/mL
Compound = COc1cc2c3c(n(CCCN4CCOCC4)c(=O)c2cc1OC)-c1cc2c(cc1C3=O)OCO2; test system = beagle dog, male, plasma; setting = intravenous infusion, 50 mg/m^2, 1 h infusion, vehicle 2; measurement = AUC(0-inf); result = 1440 ± 651 ng·h/mL

Some of these lines once more:
Compound = CCCCCCCCCCCCCCCC(=O)N[C@@H](CCC(=O)NCCCC[C@@H]1NC(=O)[C@H]([C@@H](C)CC)NC(=O)[C@@H](NC(=O)[C@@H]2CCCN2C(=O)[C@H](Cc2ccccc2)NC(=O)[C@H](Cc2c[nH]cn2)NC(=O)[C@@H](NC(=O)[C@H](CC(=O)O)NC(=O)CC(C)C)[C@@H](C)O)CSSC[C@@H](C(=O)N[C@@H](CCCCN)C(N)=O)NC(=O)CNC(=O)[C@H](CCCCN)NC(=O)[C@H](CO)NC(=O)[C@H](CCCNC(=N)N)NC(=O)[C@@H]2CCCN2C(=O)[C@H](CCC(=O)O)NC(=O)[C@H](Cc2ccccc2)NC1=O)C(=O)O; test system = healthy volunteers, plasma; setting = subcutaneous, 45 mg single, lyophilised formulation; measurement = AUC(0-inf); result = 40600 ± 8900 ng·h/mL
